# Published values collected from several papers.
# Every numbered part comes from another study and shows a few of its results, in no order.

# Set 1 — method: universal PBM; molecule type: double-stranded DNA, one strand shown; medium: in vitro; tested at: 600 nM; reading: higher = stronger binding
# Target: Sal-like protein 4, full length isoform A (SALL4, Homo sapiens, UniProt Q9UJQ4, residues 1-1053)
# UniProt Q9UJQ4, sequence (whole entry, looked up): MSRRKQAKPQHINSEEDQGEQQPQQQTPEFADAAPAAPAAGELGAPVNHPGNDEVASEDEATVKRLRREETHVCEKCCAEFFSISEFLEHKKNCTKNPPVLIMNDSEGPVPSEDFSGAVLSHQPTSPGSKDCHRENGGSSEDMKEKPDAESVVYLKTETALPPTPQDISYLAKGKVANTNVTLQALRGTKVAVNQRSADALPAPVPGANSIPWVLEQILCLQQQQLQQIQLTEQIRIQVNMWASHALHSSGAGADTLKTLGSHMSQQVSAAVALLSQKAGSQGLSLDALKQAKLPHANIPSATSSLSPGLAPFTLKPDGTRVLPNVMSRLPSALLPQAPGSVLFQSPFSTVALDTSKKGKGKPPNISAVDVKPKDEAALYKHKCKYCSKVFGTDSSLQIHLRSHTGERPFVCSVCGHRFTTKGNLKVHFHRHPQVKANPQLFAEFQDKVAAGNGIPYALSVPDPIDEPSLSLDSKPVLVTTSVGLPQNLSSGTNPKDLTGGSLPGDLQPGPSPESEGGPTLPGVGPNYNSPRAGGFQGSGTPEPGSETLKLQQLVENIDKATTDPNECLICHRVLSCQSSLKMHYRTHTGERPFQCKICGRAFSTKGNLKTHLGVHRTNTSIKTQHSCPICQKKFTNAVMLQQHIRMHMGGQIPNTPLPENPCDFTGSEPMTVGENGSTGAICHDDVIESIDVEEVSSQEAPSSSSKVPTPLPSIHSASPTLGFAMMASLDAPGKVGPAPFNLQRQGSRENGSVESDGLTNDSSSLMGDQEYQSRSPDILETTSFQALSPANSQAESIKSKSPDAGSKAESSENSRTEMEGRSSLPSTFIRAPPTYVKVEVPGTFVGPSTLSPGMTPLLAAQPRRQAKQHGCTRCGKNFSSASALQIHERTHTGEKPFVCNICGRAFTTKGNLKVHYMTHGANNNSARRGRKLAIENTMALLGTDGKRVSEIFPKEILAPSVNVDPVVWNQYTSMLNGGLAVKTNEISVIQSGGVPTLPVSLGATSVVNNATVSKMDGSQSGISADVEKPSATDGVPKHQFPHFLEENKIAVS
# Setting: 8-mer, flanks averaged, mean of replicates
Oligonucleotide,E-score
AGTGAGTG,-0.0885
ACGTCCCA,-0.18
TACTCCTA,0.108
CAACCACA,0.0313
CAGAAGAG,-0.08
GCTTTTTA,0.204
TCAATGAA,0.181
GCGTTGAA,-0.0857
ACCTATTC,0.0609
CCTATGTA,0.168
CGAGATTA,0.163
ACGGTGGC,-0.23
GCCTGTAA,-0.0476
CTTCTGTC,-0.0198
CGGAAGGA,-0.163
AGCAATGG,-0.0399

# Set 2 — method: RNA Bind-n-Seq; molecule type: RNA; medium: in vitro; tested at: 365 nM; baseline: no-protein control; reading: higher = stronger binding
# Target: RNA binding protein fox-1 homolog 2, RRM domain, GST-SBP tag (RBFOX2, Homo sapiens, UniProt O43251-10, residues 100-194)
# Setting: natural RNA segment, single round, ends assumed
# Construct (chain): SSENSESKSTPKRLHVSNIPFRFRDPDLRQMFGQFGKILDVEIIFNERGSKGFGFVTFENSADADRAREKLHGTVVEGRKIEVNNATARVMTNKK
Oligonucleotide,RBNS enrichment (R)
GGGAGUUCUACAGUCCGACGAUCACAUUUUUCAUUCUCUCUGGAAACAGACUCAGGUUUCUUUGGACCAAAUCCAAAAGAACACAUAGCUGUAACACAGCUGUAGUUGACUAGAAUGCUCUGUAUACUUUAUAUGGAAUUCUCGGGUGCCAA,0.333
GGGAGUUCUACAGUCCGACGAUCGCUGCCCUGAGUGCCCACGCGAGGGCGGCCGCAAGUUGACUAAACGGGGACACACACGGCUGAACCUUCCCCACGGGACCCCGAGUGGCCCCACCCUGCCUCUUGUCCUGUGGAAUUCUCGGGUGCCAA,0.318
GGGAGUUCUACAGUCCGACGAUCGGCAGAGAUGCAGUUACCUACCCUAGCUUUUGAUGGGUUCUCUUACCUGUAGUAGCCUUAUCCCUGGUCAUUUGGAUUUUCAGUUUGCUUUUUUCUUUUUUUCCCCUCCAUGGAAUUCUCGGGUGCCAA,2.3
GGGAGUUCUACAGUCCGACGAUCUGAAUCUCCAGCAGGAGGGUCCUUCUCUCCCUGGCCCGUCCUCCUCCCACCCCCUCCCCCUGGGGGCAAAUCAGGACACAACAGAGGGCAGAGGCCCCAUUAGCUUUAAAUGGAAUUCUCGGGUGCCAA,0.276
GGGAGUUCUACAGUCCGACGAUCUGCUCUGACCACUCUCCUGUCAUCCAGUUGGCUCCCAUGCUCUCUGGAGCUUCUGGGCGCAAGUUACAGACAUCAUAACCACUGAUCCUAACACACAUAACCAUCAGCCAUGGAAUUCUCGGGUGCCAA,0.31
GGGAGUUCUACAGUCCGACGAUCCCUUGUUUUCCUUGGAAAUUUUGCAAAAUGUUAUGUGAAACAACUUCUAGGGUAAAAACAGCUAUUACUAAUCUCUGCACUGGUCAUUUGAGAAUUUUUUUUGUACAGCAUGGAAUUCUCGGGUGCCAA,2.09
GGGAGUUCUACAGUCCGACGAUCGCAAAAAGGUCUGAAAAGCAAGGGAAUACCAUUAUUUUCGGAUUAGCGGUUUAUUAAGCUCUUCUAUAUUAAACACUAAUAGAUAUUCAAUAACGGAGUAAACUGUUCCAUGGAAUUCUCGGGUGCCAA,0.265
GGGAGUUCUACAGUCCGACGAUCAUAAUAAUAACCUGUUUUCUGGUUGUUGUUGGGGCAUGAGCUUGUGUAUACACUGCUUGCAUAAACUCAACCAGCUGCCUUUUUAAAGGGAGCUCUAGUCCUUUUUGUGUUGGAAUUCUCGGGUGCCAA,0.244
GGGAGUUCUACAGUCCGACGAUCCCAUCUUCUUGGUUUGAAGCUUUAUCCAUGUAUCAUGUUCCGUGUAGCCAUUUUAUUUUUUAAGAAACUGCUAAUACUUUCUCCCUAAUGGAAGCCCUGAUCCCCCAGAGUGGAAUUCUCGGGUGCCAA,0.654
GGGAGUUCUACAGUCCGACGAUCGGAGGGGCAGAGAGGUAGGUGGCACAGAAGAUGGGGCUUUAUGCUUGUAAAUAUUGAUAGCACUGGCUUCCUCCAAAGUCCCAAUACUCUAGCCCCGCUCUCUUCCCCUCUGGAAUUCUCGGGUGCCAA,0.787
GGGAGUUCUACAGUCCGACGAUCGUCUUUAACCACUUCUGAAUCUCAUAUGGCCUGUUGCUCUUGGUCUUGCUAGACUCCCGUUUGUUCUAAGAGUCAGGCUUAUGUAUAGCAGCUUCUAGCUGGUUCUCUAUUGGAAUUCUCGGGUGCCAA,0.651
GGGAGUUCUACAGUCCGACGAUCGAAUGUGUCUCAGAGAUUUCCUGCAAGAAACUCAGGUCCAAUCUGGACUAGAAUAAAGACCUCUGGGGCUGGAGAGAGAGCUCAGUGGUUAAGAGUACUGGCUGUUGGGGUGGAAUUCUCGGGUGCCAA,1.38

# Set 3 — method: protein binding microarray; molecule type: double-stranded DNA, one strand shown; medium: in vitro; tested at: not given; baseline: not given; reading: higher = stronger binding
# Target: Histone acetyltransferase KAT6A, winged helix 1, GST fusion (KAT6A, Homo sapiens, UniProt Q92794, residues 1-85)
# Setting: 8-mer, flanks averaged, mean of 2 arrays, mostly near background
# Construct (chain): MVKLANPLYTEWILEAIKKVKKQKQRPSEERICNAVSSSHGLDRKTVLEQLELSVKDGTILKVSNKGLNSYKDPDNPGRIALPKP
Oligonucleotide,E-score
ACGGTATA,0.235
GAGTCCCA,-0.0572
AGCTTCCA,-0.223
CTACATCA,-0.0726
AGGGGGTC,-0.0818
CGCGCCGA,0.393
CATCCTAC,-0.123
ATGCTAAA,-0.185
CTATAGAC,-0.0689
ATAGGGTC,-0.141
TAGATCTA,-0.0461
TCAATGGA,-0.103
ACCAACCG,0.0971
AGGATGCA,-0.242
ATATCATC,-0.0691
ACACACCG,0.171
TCTGTGAA,-0.18
TATGGCGA,0.0138
CTTCACAC,-0.195
CCGCTGAA,0.115
ACATTCTG,-0.222
CCATAATC,-0.0965
AAGTGATC,-0.146
ATTAAGTA,-0.0804
CAAAATCA,-0.227

# Set 4 — method: RNA Bind-n-Seq; molecule type: RNA; medium: in vitro; tested at: not given; baseline: input RNA pool; reading: higher = stronger binding
# Target: RING finger protein unkempt homolog, zinc fingers 1-6, GST-SBP tag (UNK, Homo sapiens, UniProt Q9C0B0, residues 30-357)
# UniProt Q9C0B0, sequence (30-357, looked up): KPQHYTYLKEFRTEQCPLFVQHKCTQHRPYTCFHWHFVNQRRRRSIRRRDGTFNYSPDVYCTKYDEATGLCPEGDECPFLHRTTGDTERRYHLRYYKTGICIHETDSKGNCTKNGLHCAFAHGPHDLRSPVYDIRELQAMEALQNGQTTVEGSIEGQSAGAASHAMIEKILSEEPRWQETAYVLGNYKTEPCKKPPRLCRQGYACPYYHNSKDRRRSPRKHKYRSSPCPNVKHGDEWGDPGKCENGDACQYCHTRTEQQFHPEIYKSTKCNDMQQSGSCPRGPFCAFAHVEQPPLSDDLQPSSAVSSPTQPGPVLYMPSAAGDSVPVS
# Setting: RNA with constant flanks, human-mouse chimeric sites, ends assumed
Oligonucleotide,bound/input enrichment [ratio]
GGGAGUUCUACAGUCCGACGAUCGAAACAUUUAAAUUUAAAGAAGCUGUUGUUCUAGGAAGUACGGACUUUCUAGAAGAUGAUAUAGAGAAAAUUGUAGAAGAACUGGGGAAAGAGUAUAAAGGCAAUGCUUAUCAUUUAAUGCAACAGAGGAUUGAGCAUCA,1.94
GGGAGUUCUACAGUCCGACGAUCCCCCAAUACCAUUUGCAGGUCUGGAACCUGCAUUCUUUUUUUAAAAAACAUGUAUACAUUUUAGGGCUGUAGACUUAUUUUCCUGGUUUUGUUUUUCAUUGCUGACUUUUGAGCACAGAACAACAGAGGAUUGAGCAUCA,0.914
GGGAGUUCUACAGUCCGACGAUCAAUUUCCUGUCAUACUUUGUAGCAAGACACAUCAGACUUACAGAGCAUUGGGCCUCUUUCUAGGUUUGUGUUAUUUCUCAGCUAUGGAUAUGAUCAAAUGAGAACACUGCUUAACUAAUGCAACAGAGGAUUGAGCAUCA,0.182
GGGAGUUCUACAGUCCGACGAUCUACUCAACUUUCUUUCCACAUUUUGAAUUCCAAGACAUUAUUCCUCCAGAUGACUUCCUAACGAGUGAUGAAGAGCAAGAUUCCGUUUUAUUUGGAACUAUGAGAGGACAAGUUGUUGGACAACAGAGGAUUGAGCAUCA,0.188
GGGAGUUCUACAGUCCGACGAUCUGUGCAUUAUGAUGCUUAGAUGGUUUUUGCAGAUGCAGAAAUCGCUGCAAGGUAAUCACAAUAGAUAAAAGUGGUAUUUUAAACCUUUGAAAUAAAUGGAUGUAACUGUACCUUGGUACACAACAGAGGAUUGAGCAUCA,0.671
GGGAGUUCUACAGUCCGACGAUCGCUCUUGGGAAUGUAAUCAGCGCCUUGGGGGACAAGAGCAAGAGAGCCACCCAUGUCCCUUACAGAGACUCUAAGCUGACAAGACUCUUGCAGGAUUCCCUCGGGGGUAACAGCCAAACCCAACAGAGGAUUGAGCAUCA,0.129
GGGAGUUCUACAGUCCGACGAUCUUCAAAGAAAAGGGCAGCUGUGUCAUUUCAUAAGUAACUCUGGGGGAGGGAAAUUCUGUUCUUUUGUUUUUAGUUUUCCCAAAUGAAACCAACAUGCGUGUUGAAGAACUGAGAAAAAAUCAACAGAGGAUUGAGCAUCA,0.232
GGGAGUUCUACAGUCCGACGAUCGGAAUUGCAAACUGAUUUAAGUUUGAGUAUCACAAUGUUAGCUUUCUAAUUCCAUAAAAGUACUUGGUUUUUACAGUUUAUAAUCUGACAUCACCCCAGCGCCAUUUGUAAAGAGCAACUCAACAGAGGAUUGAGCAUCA,0.576
